# Assay results gathered from unrelated publications.
# Parts stem from different laboratories: compare values within a part only. Positions count from the first letter of the parent shown.

# Sample 1
# Target: RING finger protein unkempt homolog, zinc fingers 1-6, SBP tag (UNK, Homo sapiens, UniProt Q9C0B0, residues 30-357)
# UniProt Q9C0B0, sequence (30-357, looked up): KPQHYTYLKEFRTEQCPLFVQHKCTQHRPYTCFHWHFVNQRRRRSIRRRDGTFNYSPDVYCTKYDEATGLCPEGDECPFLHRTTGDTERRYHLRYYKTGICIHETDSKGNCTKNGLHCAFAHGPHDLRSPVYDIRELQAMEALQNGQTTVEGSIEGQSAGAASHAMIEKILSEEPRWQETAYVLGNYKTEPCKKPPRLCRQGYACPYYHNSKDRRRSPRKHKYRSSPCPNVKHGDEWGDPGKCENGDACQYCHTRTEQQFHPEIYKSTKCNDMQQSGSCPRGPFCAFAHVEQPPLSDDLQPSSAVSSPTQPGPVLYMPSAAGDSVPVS
# Technique: RNA Bind-n-Seq
# Form: RNA
# Matrix: in vitro
# Tested at: 100 nM
# Setting: RNA with constant flanks, vertebrate orthologous sites, ends assumed
# Baseline: input RNA pool
# Reading: higher = stronger binding
# All sequences stand within: GGGAGUUCUACAGUCCGACGAUC … CAACAGAGGAUUGAGCAUCA
Sequence,bound/input enrichment
AAUAGGUUUAAGCUUGUUUGCACAGUUUUUUUCCUCCAUUGGAGAUGGAAUUCAUUGCCUUAGGUCUUUUUAAUAGUAUAUUGUUAUUGUUGGGCUGGCUCUAUGCUUGAAAACCAGUUU,1.94 ratio
AGCCAUUUUUCCCACGUUUUCUGUAAAUAAUGGAUAAUCUUUUUUUAAAAAAAUUAUUUUUAAUGCUGUUUUAACAAUGUGGAUAGAUCAUAAAUGUACUUGCUGAAUUCAAUCAUUUUU,0.231 ratio
AUCUCUCAUUUUAUAUGUCCAAAAAAGGUUUUAAAUUUGUAAACACUUGCUAGUUUUAGUUAGCUCUGCCCUCAUAAAAGUAUUACUAUAAUUCACCACAAACAGAUAAUCUGUCUGAAU,0.896 ratio
GCAUUUGCCGCUAUCACCAAAAGCAAACUUCCACUUUUCAAAAUUCAUUCAGAGCCGUUUUAGUGUUUCCUGUUCCGUACCCUUCCCACGACUUUCUCUGAUGAAAUAUCCUGUUCUCCU,0.806 ratio
AUCCCAGUUUGUAUGCACAUUAUUCCCAUUCCUAUCUGUUGUGUUUGCAGAAAUUACAUUUUACCCUUUUCUAAGGAAUAUCUUUUGAUUUUCAUAUUAUUUGGUUGCAUGGAGUUGCCC,0.602 ratio
UUUUUUAAAGUUUUUUUAAUUUAAUUUUUCCUUUUGGGGGUUAAAGUUUGCUCUACCAAAUAGUGAUUGUAACCAAUUGAUCUGUUUUGGAUGUUGCUAUAGUGACAUGCAGUUAUAUAU,0.758 ratio
UAAUGUGUCUUUAUUUAUUGAAGGUAGUUUUGUGCAAAGGACUGUGUUAGAUUUAAAAAUUAGGGGAUUAAUUCCUUUUUGUUGUGUUGCUUUUGUUAUUGAAAAUAAAUAGAAUUUUGU,2.12 ratio
UAUUCAAUUGAUUUAAAUUAUUUAGAUCAGAAGUUAUUACUGUGUAUGUUUACUUUCACGCAGCUUAUAUUUUUCAUCUGUUUUUGCAAAAUGUCAGUUGUGUGUGCUUCCUUAUGUACC,0.149 ratio
AUCACUCUAAUAAUUGUAAUCUGAAUAAAGUGUAACAUUGUGUAGCCUUUUUGUAUAAAAUAGACAAAUAGAAAAUGGUCCAAUUAGUUUCCUUUUUAAUAUGCUUAAAAUAAGCAGGUG,0.923 ratio
UAUUCAGUCAUGGAGAAACAGAUAUUAAAAUAAUUUUAUGGCACUGUUCUUUAGUUUUAUUAGUUUUACAGAAGUGUUUGCAAACAACAGGAGCUGACUAUUGACGAGAAAGCGGAUUUU,1.09 ratio
GUAUCAGUCUCAUACCAGCAUUUAAUCUCUUGUCUGUGCACAGCUUCAAAUGUUACCGUCUAGUUAGAUUUUUAUUUAAAAUAUGAAAAACUGCUUUUCCCAAGACGUUUUUUAAAAUAC,1.82 ratio

# Sample 2
# Target: Ras GTPase-activating protein-binding protein 1, RRM domain (G3BP1, Homo sapiens, UniProt Q13283)
# UniProt Q13283, sequence (whole entry, looked up): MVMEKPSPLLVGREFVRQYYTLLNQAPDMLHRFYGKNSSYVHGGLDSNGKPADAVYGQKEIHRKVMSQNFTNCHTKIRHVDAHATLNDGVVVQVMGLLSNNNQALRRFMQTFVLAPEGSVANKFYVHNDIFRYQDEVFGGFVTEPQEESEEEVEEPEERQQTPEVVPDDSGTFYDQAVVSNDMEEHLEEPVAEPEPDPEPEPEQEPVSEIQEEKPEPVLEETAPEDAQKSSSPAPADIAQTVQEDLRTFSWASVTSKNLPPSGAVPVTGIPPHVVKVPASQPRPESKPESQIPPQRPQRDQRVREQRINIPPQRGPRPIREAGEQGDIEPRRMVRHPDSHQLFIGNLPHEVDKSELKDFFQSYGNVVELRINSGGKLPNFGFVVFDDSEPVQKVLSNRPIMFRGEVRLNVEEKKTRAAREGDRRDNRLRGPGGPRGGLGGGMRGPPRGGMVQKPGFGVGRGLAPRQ
# Technique: RNA Bind-n-Seq
# Form: RNA
# Matrix: in vitro
# Tested at: 1 µM
# Setting: whole 134-nt RNA, ends assumed
# With: 150 mM KCl
# Baseline: input library
# Reading: higher = stronger binding
# All sequences stand within: GGGAGUUCUACAGUCCGACGAUC … UGGAAUUCUCGGGUGUCAAGG
Sequence,log2 enrichment
CACAGACAACACGCACCCACACAGACACAGAGGGAAGGGGUUGGGAUGGGGACAGGGUGCACAGCAGGAAAGGGUAGGACCCCAGCCCCU,-0.132
CCUCAAGUCCUGUGCUACACAUCGUAUGUACCGAAUCGGAGGGGAGGGAGGGAAAGUAUUAUGUUACGCCGUUCGGAUCUGCACUUCCAG,0.352
GCAGGAAGUAAAAACAAAUGGAAAUGCUUCGGAUAGUGGCAGGGGUGGGGGUUGCUAUGGAAAGGGUGGGAUGGGAGUGGGUAAAGAGUU,1.55
UGUGCUACACAUCGUAUGUACCGAAUCGGGGUUUUUUUGGGUUUUUUUGGGGUUUUUUUGGGGAAAGUAUUAUGUUACGCCGUUCGGAUC,-0.197
AGUCCUGUGCUACACAUCGUAUGUACCGAAUCGGGGUGGGGAGGGGUUUUUUUGGGGAAAGUAUUAUGUUACGCCGUUCGGAUCUGCACU,0.897
UCCUGUGCUACACAUCGUAUGUACCGAAUCGGGGCCCCCGGGCCCCCGGGCCCCCGGGGAAAGUAUUAUGUUACGCCGUUCGGAUCUGCA,-0.738
UAACUUUAGAGGAGGAUCUGAUGGAUAUGGCAGUGGACGUGGAUUUGGGGAUGGCUAUAAUGGGUAUGGAGGAGGACCUGGAAGUGGCAA,-0.247
UCCUGUGCUACACAUCGUAUGUACCGAAUCAAACCCCCAAAUUUUUAAACCCCCCCAAAAAAGUAUUAUGUUACGCCGUUCGGAUCUGCA,-0.15
CACAGAUAACACGCACCCACACAGACACAGAGGGAAGGGGUUGGGAUGGGGACAGGGUGCACAGCAGGGCGGGGUAGGACCCCAGCCCCU,-0.0832
CUCAAGUCCUGUGCUACACAUCGUAUGUACCGAAUCGGAAAGGAAAGGGAAAGGAAAGUAUUAUGUUACGCCGUUCGGAUCUGCACUUCC,-0.226
GUCCUGUGCUACACAUCGUAUGUACCGAAUCGGGGCCCCGGGGCCCCGGGCCCCGGGGAAAGUAUUAUGUUACGCCGUUCGGAUCUGCAC,-1.51
CCUGUGCUACACAUCGUAUGUACCGAAUCAAACCCCCAAACCCCCCCAAAUUUUUUUAAAAAAGUAUUAUGUUACGCCGUUCGGAUCUGC,-0.33
AAGUCCUGUGCUACACAUCGUAUGUACCGAAUCGGGAGGGUUUGGGAAAAAAAGGGAAAGUAUUAUGUUACGCCGUUCGGAUCUGCACUU,0.332
GUCCUGUGCUACACAUCGUAUGUACCGAAUCGGGUGGGUUUUUUUGGGAAAAAAAGGGAAAGUAUUAUGUUACGCCGUUCGGAUCUGCAC,0.265

# Sample 3
# Target: CCND1, cyclin fold, Cln2 fusion (human)
# Technique: yeast growth competition, sequencing
# Matrix: yeast
# Setting: weak parent motif
# Baseline: not given
# Reading: higher = stronger binding
# Starting sequence: ORC1 docking peptide (human); PRARKRLELGNLG
Substitution,normalised enrichment score
R4E,0.36
N11G,0.145
G10F,0.329
P1S,-0.246
E8M,-0.238
A3R,-0.373
G13L,-0.387
E8A,-0.000894
L12S,0.0281
N11L,0.19
E8L,0.222
L12R,-0.471
N11S,0.216
E8F,0.289
R6W,0.0459
L7P,-1.11
L7C,-0.129
N11Q,-0.509
L9F,0.386
R4I,-0.513
R4D,0.524
G10V,-0.329
A3D,0.0319
E8K,-0.321
E8W,0.308

# Sample 4
# Target: RNA binding protein fox-1 homolog 2, RRM domain, GST-SBP tag (RBFOX2, Homo sapiens, UniProt O43251-10, residues 100-194)
# Technique: RNA Bind-n-Seq
# Form: RNA
# Matrix: in vitro
# Tested at: 365 nM
# Setting: natural RNA segment, single round, ends assumed
# Baseline: no-protein control
# Reading: higher = stronger binding
# All sequences stand within: GGGAGUUCUACAGUCCGACGAUC … UGGAAUUCUCGGGUGCCAA
# Target sequence (chain): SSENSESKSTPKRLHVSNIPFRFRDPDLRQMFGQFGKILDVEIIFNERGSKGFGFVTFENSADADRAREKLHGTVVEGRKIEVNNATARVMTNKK
Sequence,RBNS enrichment (R)
AGAACCUUUUUCACUAGGAAAUAAGAUUCAUUUCUUUCGGCAGUAGAUGUAGAUUCAUCUUUUAACGUUUCUUCAAAUUUGUUUCUGUCAGGCUUUGUGUUAUUUUAAAU,1.97
CCAUUCAGGAUCGCUACGGUUCUUAAUCCUGGUGCCAGGCUGUCCAACCUGGUAAAACUCCACUUCAGAUGGACCUGAGACCACAUCUGGCUGCGCCAAUGCCCCAGCUG,0.217
UCUGCCAAAAUACUUGAACACUGUGUUUUAUUGUGGUAAUUAUGUUUUGUGACUCAAACUUCUGUGCUGGGUGAAGUACCCAUUGUGAUUGUGGAAGCUAGAAUUCAAUU,1.47
AGGCUGCCCCGGGCCUGGCGGGCCACCCCUCUCUAUGCAAACACGUAAAAGCCAUGAAUGCUGGAAUCCAAAACUGACGAGGUUUAUUUUUUUCAGAGCCAGUGGCUGGU,0.424
UACCUAAGGGGUUACUUGUUUAAUGGGAUGGCAUUGACUUUUUGAAAAUCAAGUGGACUGAGUCAUUGAUAAAACAUUUCUAAGAGUGGGGCUAGAGAACAUACUUUACA,0.88
UGAUAAUUUGGGGUGUUUGGCUGUCAGCUAGGCUCAUGAAGUCCACUGUACUGUAAUGAUGGUAUUUACCUCUGUGCUAUUUUAAUUACCCUCGCGUCUGUGGAACUGCU,0.497
UGCAGAAGAGAACUGAUUGGUGGUCGAAGCACCAUCUUCACAGAUGUUCAGGGGCAGUGGGGGGCUCCAGGCACGGUCAAUGAAGGAAACAGUGCCUGUCCACCCACCCU,0.429
ACACUUUAAUGAAGGAAACAACACAUUUAUACGGAUUUCAUAUUUCUACCCGCCUUUCCUGACUCUGUGUUUUAUAUAUAUUAUAUAUAAAUAUAUAUUGUGUACGGCCG,1.06
UUCUGUUCAGCUGGGGUAGAGUGAGGAUGAAAAGUCAGCCACCACUCUGUGGCAGGGUUGCUGGGUGGGAACAGGGAUUUUAUUUAGACUCAGCUAGAUCGUGUGAGAAG,2.03
GGCUGUGAUAAGUAGGUUUUGAUUGAGUGAAAGCAUGAGCUUGUUCAGAGUGAGGGGCAUAGUGAAAAAGGAACAGCCAUGCCUCAAAAUCAAAUCAUUUGCAUUCCCAC,18.1
CCCACUGAGUUCAGGUCAUUUGAGUUAAAACAAAAAAAAAAAUCCUCUGCUGCACAUUUUGUUUAAGUGUUAACUGUUUCUGCUAUUAAUGUUGGAAACACAAAUAGUGC,0.776
ACCUGGGGAGGCCAGGUCACUGCACUGGGAGGUCCUGGCUGCUGCGAAGCUGGAGGAGGACUGCGUGGGCUGAGAUGCCACCCUUUGAAGGGUGAACAGCAUGGCGGCAU,1.84
